Published values collected from several papers.
Numbers after ± are the reported error. Converted amounts (≈) assume the structure as drawn.
Organism: Botrytis cinerea

| Compound | test | system | setting | quantity | result |
| --- | --- | --- | --- | --- | --- |
| C[C@@H](O)[C@H](NC(=O)[C@@H](N)CCCNC(=N)N)C(=O)N[C@@H](CS)C(=O)N[C@@H](CCC(=O)O)C(=O)N[C@@H](CO)C(=O)N[C@@H](CCC(N)=O)C(=O)N[C@@H](CO)C(=O)N[C@@H](Cc1c[nH]cn1)C(=O)N[C@@H](CCCCN)C(=O)N[C@@H](Cc1ccccc1)C(=O)N[C@@H](CCCCN)C(=O)NCC(=O)N1CCC[C@H]1C(=O)N[C@@H](CS)C(=O)O | grey mould lesion size | detached Nicotiana benthamiana leaves | 48 h post-inoculation | lowest effective concentration | > 24 µM |
| CC[C@H](C)[C@@H]1NC(=O)[C@H](CCCNC(=N)N)NC(=O)[C@H]([C@@H](C)O)NC(=O)[C@H](Cc2c[nH]c3ccccc23)NC(=O)[C@H](Cc2ccccc2)NC(=O)[C@H](Cc2c[nH]c3ccccc23)NC(=O)[C@H](CCCNC(=N)N)NC(=O)[C@H](CCCNC(=N)N)NC(=O)[C@H](CCCNC(=N)N)NC(=O)[C@H](Cc2ccccc2)NC(=O)CNC(=O)[C@H](CCCCN)NC(=O)[C@@H](NC(=O)[C@H](CCCNC(=N)N)NC(=O)CNC(=O)CN)CSSC[C@@H](C(N)=O)NC1=O | resazurin | synthetic fungal medium | added: CaCl2 2 mM | MIC | 3 µM (≈ 6.55 µg/mL) |
| Cc1ccc(C(F)(F)CNC(=O)c2cc(Cl)nnc2Oc2cccc(C(F)(F)F)c2)c(C)c1 | fungal growth, inhibitor | B05.10 wild type | 168 h | EC50 | 10.4 ± 0.7 nM |
| C[C@@H](O)[C@H](NC(=O)[C@H](CS)NC(=O)[C@H](Cc1ccccc1)NC(=O)[C@H](CS)NC(=O)[C@H](CCCNC(=N)N)NC(=O)[C@H](CCCNC(=N)N)NC(=O)[C@H](CCCNC(=N)N)NC(=O)[C@H](Cc1ccccc1)NC(=O)CNC(=O)[C@H](CCCNC(=N)N)NC(=O)[C@H](CS)NC(=O)[C@H](CCCNC(=N)N)NC(=O)CNC(=O)CN)C(=O)N[C@H](C(=O)N[C@@H](Cc1c[nH]cn1)C(=O)N[C@@H](CS)C(=O)O)[C@@H](C)O | grey mould lesion size | detached Nicotiana benthamiana leaves | 48 h post-inoculation | lowest effective concentration | 3 µM |
| C=CCN1C(=O)C(CC=C)(C(=O)OCC)Oc2cc(F)ccc21 (stereo not drawn) | microbial growth |  | 200 µg/mL | inhibition | > 50% |
| Cc1cc(C(=O)NCC(F)(F)c2ccc(Cl)cc2Cl)c(Oc2cccc(C3CC3)c2)nn1 | fungal growth, inhibitor | B05.10 wild type | 168 h | EC50 | 4.8 ± 2.1 nM |
| C#CCN1C(=O)C(CC#C)(C(=O)OCC)Oc2ccccc21 (stereo not drawn) | microbial growth |  | 50 µg/mL | inhibition | < 25% |
| Cc1cc(C(=O)NCC(F)c2ccc(Cl)cc2Cl)c(Oc2cccc(C3CC3)c2)nn1 (stereo not drawn) | fungal growth, inhibitor | B05.10 wild type | 168 h | EC50 | 8.5 ± 0.4 nM |
| CC[C@H](C)[C@@H]1NC(=O)[C@H](CCCNC(=N)N)NC(=O)[C@H]([C@@H](C)O)NC(=O)[C@H](C(C)C)NC(=O)[C@H](Cc2ccccc2)NC(=O)[C@H](C(C)C)NC(=O)[C@H](CCCNC(=N)N)NC(=O)[C@H](CCCNC(=N)N)NC(=O)[C@H](CCCNC(=N)N)NC(=O)[C@H](Cc2ccccc2)NC(=O)CNC(=O)[C@H](CCCCN)NC(=O)[C@@H](NC(=O)[C@H](CCCNC(=N)N)NC(=O)CNC(=O)CN)CSSC[C@@H](C(N)=O)NC1=O | resazurin | synthetic fungal medium | added: NaCl 100 mM | MIC | 1.5 to 3 µM (≈ 3.01 to 6.03 µg/mL) |
